Measurements pooled from the literature.
“And” joins repeats or separate records; there may be more than shown. ± gives the spread as reported.
Dehaloperoxidase B ferric: Dehaloperoxidase B, ferric (Amphitrite ornata, UniProt Q9NAV7)
MT-CYB/UQCRFS1: MT-CYB/UQCRFS1 (Homo sapiens, UniProt P00156+P47985)
KEAP1 Kelch domain: Kelch-like ECH-associated protein 1, Kelch domain (KEAP1, Homo sapiens, UniProt Q14145)
T1: preQ1-III riboswitch A52G (Faecalibacterium prausnitzii); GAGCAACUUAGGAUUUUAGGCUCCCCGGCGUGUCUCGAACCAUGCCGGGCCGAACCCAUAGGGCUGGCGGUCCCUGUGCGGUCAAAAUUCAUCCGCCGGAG

With `Cc1cc(NS(=O)(=O)c2ccc(N=NN(C)O)cc2)no1` the inhibition was 70 ± 1.38% (α-glucosidase, rat intestine; enzyme activity; 300 µg/mL, together with: 4-nitrophenyl α-D-glucopyranoside).
For `O=CNc1ccc(Br)cc1C=O`, “share of total products” read 0.6% (Dehaloperoxidase B ferric; product, HPLC; together with: 5-bromoindole 500 µM, H2O2 50 µM).
For `Nc1nc2c(ncn2[C@@H]2O[C@H](COP(=O)(O)O)[C@@H](O)[C@H]2O)c(=O)[nH]1`, “ΔG of binding” read -7.06 kcal/mol and -7.01 kcal/mol (GUK1 (Homo sapiens, UniProt Q16774); ITC; concentration not given, together with: 150 mM KCl).
For `CC(C)CC(=O)N[C@H](C(=O)N[C@H](C(=O)N[C@@H](CC(C)C)[C@@H](O)CC(=O)N[C@@H](C)C(=O)N[C@@H](CC(C)C)[C@@H](O)CC(N)=O)C(C)C)C(C)C`, “dissociation rate constant” read 0.0016 s⁻¹ (Cathepsin D (CTSD, Homo sapiens, UniProt P07339); surface plasmon resonance).
`C#Cc1cccc(Oc2ccc(-c3nn([C@@H]4CCCN(C(=O)C=C)C4)c4ncnc(N)c34)cc2)c1` has an SILAC ratio of 7 (Cytochrome b5 type B (CYB5B, Homo sapiens, UniProt O43169); ABPP-SILAC; 1 µM, 1 h; reference: DMSO).
`CC[C@@H]1[C@H](F)C(=O)N[C@@H]1COc1nccc2cc(C(N)=O)c(OC)cc12` has an inhibition of 7.2% (Mixed lineage kinase domain-like protein (MLKL, Homo sapiens, UniProt Q8NB16); ATP-site probe binding, ActivX profiling; THP-1 cell lysate; 0.04 mM, Lys1 site).
`CC(C)C(=O)Nc1n[nH]c2cc(-c3cccc(NS(=O)(=O)C4CC4)c3)ccc12` has an ADP produced of 2.85 µM (Phosphatidylinositol 4-phosphate 5-kinase type-1 gamma (PIP5K1C, Homo sapiens, UniProt O60331); ADP-Glo; 4.57 nM, together with: 10 µM ATP).
For `NC(=O)NOCCCCCCCCCCCCCC[P+](c1ccccc1)(c1ccccc1)c1ccccc1.O=C([O-])C(F)(F)F`, “oxygen consumption rate” read 35.1 ± 5.2% (MT-CYB/UQCRFS1; complex III-dependent respiration, Seahorse XF96; HCT-116; 2 µM, 24 h; reference: control).
For `CCCCC[C@H](O)/C=C/[C@@H]1[C@H]2C/C(=C/CCCC(=O)O)O[C@H]2C[C@H]1O`, the GTP hydrolysis was 88.8% and 89.7% and 89.1% and 89.3% (GNAS, with Gbeta and Ggamma (Homo sapiens, UniProt P63092); modulator; 100 µM, without A2AR; reference: Gs alone).
`Oc1ccc(/C=C/c2cc(O)cc(O)c2)cc1`: “ΔG of binding” -7.41 kcal/mol (O-methyltransferase (Sorghum bicolor, UniProt A0A1B6PFV1); concentration not given, together with: ADE+).
The ΔH of `CC[C@H](C)[C@H](NC(C)=O)C(=O)N[C@@H](CC(N)=O)C(=O)N[C@H](C(=O)N[C@@H](CCCNC(=N)N)C(=O)N[C@@H](CCCCN)C(=O)N[C@@H](CCCNC(=N)N)C(=O)N[C@@H](CC(N)=O)C(=O)N[C@H](C(=O)N[C@@H](CCC(=O)O)C(=O)N[C@@H](CO)C(=O)NCC(=O)N[C@@H](CCC(=O)O)C(=O)N[C@@H](CCC(=O)O)C(=O)N[C@@H](CCC(=O)O)C(=O)N[C@@H](CC(C)C)C(=O)N[C@@H](C)C(=O)N[C@@H](CO)C(=O)N[C@@H](CCCCN)C(=O)N[C@@H](CC(C)C)C(=O)N[C@@H](CC(=O)O)C(N)=O)C(C)C)C(C)C` is reported as -19.78 ± 0.066 kcal/mol (KEAP1 Kelch domain; binding, ITC; pH 7, 298.15 K).
`NCCCCC(=O)O`: “normalised MST signal” -0.0164 (Sodium- and chloride-dependent taurine transporter (SLC6A6, Homo sapiens, UniProt P31641, Y138A); binding, microscale thermophoresis; 125 µM, room temperature, together with: 50 nM labelled protein; higher = more binding).
`O=C(O)c1ccc(Nc2ncc3c(n2)-c2ccc(Cl)cc2C(c2c(F)cccc2F)=NC3)cc1` has a remaining activity of 101% (human PAR-1Bα(h); kinase activity; 1 µM).
`Cc1cccc(N(O)N=Nc2ccc(S(=O)(=O)Nc3nccs3)cc2)c1` gave an inhibition of 27.5 ± 0.097% (α-glucosidase, rat intestine; enzyme activity; 180 µg/mL, together with: 4-nitrophenyl α-D-glucopyranoside).
`NCc1c[nH]c2nc(N)[nH]c(=O)c12` has a Kd of 9.8 nM (T1, preQ1-III riboswitch A52G (Faecalibacterium prausnitzii); ITC; NaCl 100 mM, apparent, single-site fit).
`CSCC[C@H](NC(=O)[C@H](CCC(N)=O)NC(=O)[C@H](CC(C)C)NC(=O)[C@H](CO)NC(=O)[C@H](CCC(N)=O)NC(=O)[C@H](CC(C)C)NC(=O)[C@H](CCC(=O)O)NC(=O)CNC(=O)[C@@H](NC(=O)[C@H](CO)NC(=O)[C@@H]1CCCN1C(=O)[C@H](CC(=O)O)NC(=O)[C@@H](NC(=O)[C@H](CCC(=O)O)NC(=O)[C@H](CCCCN)NC(=O)[C@H](CO)NC(=O)[C@H](CO)NC(=O)[C@H](CC(C)C)NC(C)=O)C(C)C)[C@@H](C)O)C(=O)N1CCC[C@H]1C(=O)N[C@@H](CCC(=O)O)C(N)=O` gave a ΔH of -18.27 ± 0.088 kcal/mol (KEAP1 Kelch domain; binding, ITC; pH 7, 298.15 K).
`NC(=O)NOCCCCCCCCCC[P+](c1ccccc1)(c1ccccc1)c1ccccc1.O=C([O-])C(F)(F)F`: “oxygen consumption rate” 95.2 ± 7.14% (MT-CYB/UQCRFS1; complex III-dependent respiration, Seahorse XF96; HCT-116; 1 µM, 24 h; reference: control).
For `CCN1CCC[C@H]1CNC(=O)c1c(O)c(Cl)cc(Cl)c1OC`, “log2 fold change” read -0.66 (Opsin-3 (OPN3, Homo sapiens, UniProt Q9H1Y3); β-arrestin recruitment, TANGO luminescence, refers to: OPN3; concentration not given; reference: basal luminescence).
Under “oxygen consumption rate”, `NC(=O)NOCCCCCCCCCCCCCCCCCCCC[P+](c1ccccc1)(c1ccccc1)c1ccccc1.O=C([O-])C(F)(F)F` is recorded as 12.8% (MT-CYB/UQCRFS1; complex III-dependent respiration, Seahorse XF96; HCT-116; 20 µM, 24 h; reference: control).
`C=CC(=O)N1CCC(COCC(=O)N2CCN(c3nc(-c4cnc(N)nc4C(F)F)nc(N4CCOC[C@@H]4C)n3)CC2)CC1` has a remaining binding of 84% (Inhibitor of nuclear factor kappa-B kinase subunit epsilon (IKBKE, Homo sapiens, UniProt Q14164); KINOMEscan; 1 µM).
The thermal shift of `C[N+](C)(C)[O-]` is reported as 18.6 °C (Trimethylamine N-oxide-binding protein (tmoX, Pelagibacter ubique, UniProt Q4FL33); binding, DSF; single replicate screen).
`CC(C)(O)c1ccccc1CC[C@@H](SCC1(CC(=O)O)CC1)c1cccc(/C=C/c2ccc3ccc(Cl)cc3n2)c1` — result for “BAL fluid PGD2 level”: “inhibited” (Cysteinyl leukotriene receptor 1 (Mus musculus, UniProt Q99JA4); female mice; intraperitoneal, 30 mg/kg).
`COc1cc(F)ccc1-c1ncnc(Nc2cccc(C[S@](C)(=N)=O)c2)n1` has a remaining activity of 80% (Calcium/calmodulin-dependent protein kinase type IV (CAMK4, Homo sapiens, UniProt Q16566); kinase activity; 10 µM, together with: 10 µM ATP).
`NC(=O)NO` — result for “oxygen consumption rate”: 94.6 ± 7.97% (MT-CYB/UQCRFS1; complex III-dependent respiration, Seahorse XF96; HCT-116; 100 µM, 24 h; reference: control).
With `Cc1cccc(N(O)N=Nc2ccc(S(=O)(=O)Nc3onc(C)c3C)cc2)c1` the inhibition was 42.5 ± 1.26% (α-glucosidase, rat intestine; enzyme activity; 240 µg/mL, together with: 4-nitrophenyl α-D-glucopyranoside).
`O=c1nc(SCc2cc(F)cc(C(F)(F)F)c2)nc(SCc2ccc3nc(Cl)ccc3c2)[nH]1`: “ATP hydrolysis rate” 0.944 µM/min and 1.38 µM/min (DNA topoisomerase 2-alpha (TOP2A, Homo sapiens, UniProt P11388); ATPase activity; 15.6 µM, together with: ATP 0.25 mM).
`[O-][S+]1CCCCS1` (centres unmarked): “SOD1 dimer fraction” 1.4% (Superoxide dismutase [Cu-Zn] (SOD1, Homo sapiens, UniProt P00441, G94A); LC-MS; brain homogenate; 5 µM, 1 h, 37 °C).
The Hill slope of `COc1cc(O)ccc1C1CC(=O)Nc2c1c(=O)nc(SCc1ccccc1Cl)n2C` (centres unmarked) is reported as -2.1 (Protein lin-28 homolog A (Mus musculus, UniProt Q8K3Y3)).
`NCCS(=O)(=O)O`: “normalised MST signal” -0.027 (Sodium- and chloride-dependent taurine transporter (SLC6A6, Homo sapiens, UniProt P31641, S402A); binding, microscale thermophoresis; 15.6 µM, room temperature, together with: 50 nM labelled protein; higher = more binding).
`O=C(COP(=O)(O)O)[C@@H](O)[C@H](O)[C@H](O)COP(=O)(O)O` — result for “thermal stability ratio”: 0.533 (Poly [ADP-ribose] polymerase 1 (PARP1, Homo sapiens, UniProt P09874); thermal proteome profiling; HepG2 cell lysate; concentration not given, 57 over 37 °C, mean; reference: compound over control).
`O=C1Nc2ccc(Br)cc2C1O` (centres unmarked) — result for “share of total products”: 3.8% (Dehaloperoxidase B ferric; product, HPLC; together with: 5-bromoindole 500 µM, H2O2 1000 µM).
For `CCCCOc1cc(C(=O)NCCN(CC)CC)c2ccccc2n1`, the inactivation V1/2 was -20 mV (PKD2L1 (Homo sapiens, UniProt Q9P0L9); ion current, whole-cell patch clamp; 10 µM, 2 s prepulse).
For `CCO[C@@H](Cc1ccc(OCCn2c(C)ccc2-c2ccc(SC)cc2)cc1)C(=O)O`, the Emax was 110% (Peroxisome proliferator-activated receptor alpha (Rattus norvegicus, UniProt P37230); receptor activation, agonist; species rat; reference: internal control agonist).
Under “log fold enrichment”, `CC1CCCN(C(=O)c2cc3ncccn3n2)C1` (centres unmarked) is recorded as -0.105 (YTH domain-containing family protein 2 (YTHDF2, Homo sapiens, UniProt Q9Y5A9); binding, affinity selection mass spectrometry; reference: other proteins in batch).
With `CN1CCN(c2cc(-c3ccncc3)c(-c3ccc4ccccc4c3)nn2)CC1` the activation was 0.1% (Prostaglandin D2 receptor (PTGDR, Homo sapiens, UniProt Q13258); agonist, FLIPR; 12.5 µM).

A few entries again:
The ΔH of `CC[C@H](C)[C@H](NC(C)=O)C(=O)N[C@@H](CC(N)=O)C(=O)N[C@H](C(=O)N[C@@H](CCCNC(=N)N)C(=O)N[C@@H](CCCCN)C(=O)N[C@@H](CCCNC(=N)N)C(=O)N[C@@H](CC(N)=O)C(=O)N[C@H](C(=O)N[C@@H](CCC(=O)O)C(=O)N[C@@H](CO)C(=O)NCC(=O)N[C@@H](CCC(=O)O)C(=O)N[C@@H](CCC(=O)O)C(=O)N[C@@H](CCC(=O)O)C(=O)N[C@@H](CC(C)C)C(=O)N[C@@H](C)C(=O)N[C@@H](CO)C(=O)N[C@@H](CCCCN)C(=O)N[C@@H](CC(C)C)C(=O)N[C@@H](CC(=O)O)C(N)=O)C(C)C)C(C)C` is reported as -19.78 ± 0.066 kcal/mol (KEAP1 Kelch domain; binding, ITC; pH 7, 298.15 K).
For `CCN1CCC[C@H]1CNC(=O)c1c(O)c(Cl)cc(Cl)c1OC`, “log2 fold change” read -0.66 (Opsin-3 (OPN3, Homo sapiens, UniProt Q9H1Y3); β-arrestin recruitment, TANGO luminescence, refers to: OPN3; concentration not given; reference: basal luminescence).
`CSCC[C@H](NC(=O)[C@H](CCC(N)=O)NC(=O)[C@H](CC(C)C)NC(=O)[C@H](CO)NC(=O)[C@H](CCC(N)=O)NC(=O)[C@H](CC(C)C)NC(=O)[C@H](CCC(=O)O)NC(=O)CNC(=O)[C@@H](NC(=O)[C@H](CO)NC(=O)[C@@H]1CCCN1C(=O)[C@H](CC(=O)O)NC(=O)[C@@H](NC(=O)[C@H](CCC(=O)O)NC(=O)[C@H](CCCCN)NC(=O)[C@H](CO)NC(=O)[C@H](CO)NC(=O)[C@H](CC(C)C)NC(C)=O)C(C)C)[C@@H](C)O)C(=O)N1CCC[C@H]1C(=O)N[C@@H](CCC(=O)O)C(N)=O` gave a ΔH of -18.27 ± 0.088 kcal/mol (KEAP1 Kelch domain; binding, ITC; pH 7, 298.15 K).
`NCc1c[nH]c2nc(N)[nH]c(=O)c12` has a Kd of 9.8 nM (T1, preQ1-III riboswitch A52G (Faecalibacterium prausnitzii); ITC; NaCl 100 mM, apparent, single-site fit).
`Cc1cccc(N(O)N=Nc2ccc(S(=O)(=O)Nc3nccs3)cc2)c1` gave an inhibition of 27.5 ± 0.097% (α-glucosidase, rat intestine; enzyme activity; 180 µg/mL, together with: 4-nitrophenyl α-D-glucopyranoside).
